Assay results gathered from unrelated publications.
Parts stem from different laboratories: compare values within a part only.
Chain of UniProt P28335 (whole entry, looked up): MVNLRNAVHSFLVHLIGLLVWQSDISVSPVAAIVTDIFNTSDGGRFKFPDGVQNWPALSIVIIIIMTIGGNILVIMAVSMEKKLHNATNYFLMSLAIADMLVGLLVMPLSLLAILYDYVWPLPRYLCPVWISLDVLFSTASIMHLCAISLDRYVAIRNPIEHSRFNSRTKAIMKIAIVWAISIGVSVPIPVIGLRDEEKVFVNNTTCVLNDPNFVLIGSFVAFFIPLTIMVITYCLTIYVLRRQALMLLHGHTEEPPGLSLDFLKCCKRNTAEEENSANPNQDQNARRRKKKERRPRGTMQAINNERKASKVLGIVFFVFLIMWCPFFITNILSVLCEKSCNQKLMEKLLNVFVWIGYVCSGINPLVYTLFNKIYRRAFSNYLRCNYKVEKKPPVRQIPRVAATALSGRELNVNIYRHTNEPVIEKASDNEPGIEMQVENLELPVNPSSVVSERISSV
Chain of UniProt Q07912 (whole entry, looked up): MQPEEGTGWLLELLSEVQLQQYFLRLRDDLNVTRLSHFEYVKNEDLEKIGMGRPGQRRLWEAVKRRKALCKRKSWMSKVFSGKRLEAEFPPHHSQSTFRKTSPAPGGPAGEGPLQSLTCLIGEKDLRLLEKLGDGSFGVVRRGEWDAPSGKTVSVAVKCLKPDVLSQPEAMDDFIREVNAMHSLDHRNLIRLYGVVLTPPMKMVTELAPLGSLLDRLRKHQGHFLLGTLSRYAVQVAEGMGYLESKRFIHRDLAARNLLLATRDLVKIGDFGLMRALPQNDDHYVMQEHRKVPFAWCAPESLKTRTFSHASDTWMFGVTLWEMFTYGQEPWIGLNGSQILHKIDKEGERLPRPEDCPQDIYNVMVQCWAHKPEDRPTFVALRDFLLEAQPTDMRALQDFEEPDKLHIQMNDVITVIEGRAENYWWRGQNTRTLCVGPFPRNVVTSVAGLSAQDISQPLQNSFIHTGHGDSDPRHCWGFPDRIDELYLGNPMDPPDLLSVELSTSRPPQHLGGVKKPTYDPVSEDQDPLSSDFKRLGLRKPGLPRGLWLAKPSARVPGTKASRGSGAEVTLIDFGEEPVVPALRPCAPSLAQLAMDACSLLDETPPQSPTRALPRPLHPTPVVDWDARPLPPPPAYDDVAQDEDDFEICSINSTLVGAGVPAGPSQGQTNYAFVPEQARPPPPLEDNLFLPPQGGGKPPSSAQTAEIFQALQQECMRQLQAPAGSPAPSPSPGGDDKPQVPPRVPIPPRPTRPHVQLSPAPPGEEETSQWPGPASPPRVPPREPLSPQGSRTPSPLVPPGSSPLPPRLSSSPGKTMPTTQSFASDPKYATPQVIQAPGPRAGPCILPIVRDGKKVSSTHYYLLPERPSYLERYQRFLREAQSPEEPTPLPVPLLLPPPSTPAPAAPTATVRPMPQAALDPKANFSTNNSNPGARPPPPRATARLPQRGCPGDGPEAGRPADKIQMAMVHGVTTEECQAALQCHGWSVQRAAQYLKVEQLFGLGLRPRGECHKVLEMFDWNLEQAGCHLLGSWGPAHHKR

Set 1
Molecule: DTFDEAFLAAVRSHQG
Method: competitive growth deep sequencing
Form: peptide
Tested at: concentration not given
Notes: peptide tiling library
Direction: direction not given
Quantity: growth enrichment score
target or system = yeast with cyclin D1-Cln2 chimera; effect on = cell growth; mode = binder; value = 1.14
target or system = yeast with cyclin D2-Cln2 chimera; effect on = cell growth; mode = binder; value = -0.215
target or system = yeast with cyclin E2-Cln2 chimera; effect on = cell growth; mode = binder; value = -0.0588
target or system = yeast with cyclin F-Cln2 chimera; effect on = cell growth; mode = binder; value = -0.0149
target or system = Saccharomyces cerevisiae; effect on = binding; strain = cyclin E1-Cln2 fusion strain; value = 1.16
target or system = Saccharomyces cerevisiae; effect on = binding; strain = cyclin D2-Cln2 fusion strain; value = 0.865
target or system = yeast with cyclin B3-Cln2 chimera; effect on = cell growth; mode = binder; value = 0.767

Set 2
Target: UDP-N-acetylglucosamine--peptide N-acetylglucosaminyltransferase 110 kDa subunit (OGT, Homo sapiens, UniProt O15294)
Chain of UniProt O15294 (whole entry, looked up): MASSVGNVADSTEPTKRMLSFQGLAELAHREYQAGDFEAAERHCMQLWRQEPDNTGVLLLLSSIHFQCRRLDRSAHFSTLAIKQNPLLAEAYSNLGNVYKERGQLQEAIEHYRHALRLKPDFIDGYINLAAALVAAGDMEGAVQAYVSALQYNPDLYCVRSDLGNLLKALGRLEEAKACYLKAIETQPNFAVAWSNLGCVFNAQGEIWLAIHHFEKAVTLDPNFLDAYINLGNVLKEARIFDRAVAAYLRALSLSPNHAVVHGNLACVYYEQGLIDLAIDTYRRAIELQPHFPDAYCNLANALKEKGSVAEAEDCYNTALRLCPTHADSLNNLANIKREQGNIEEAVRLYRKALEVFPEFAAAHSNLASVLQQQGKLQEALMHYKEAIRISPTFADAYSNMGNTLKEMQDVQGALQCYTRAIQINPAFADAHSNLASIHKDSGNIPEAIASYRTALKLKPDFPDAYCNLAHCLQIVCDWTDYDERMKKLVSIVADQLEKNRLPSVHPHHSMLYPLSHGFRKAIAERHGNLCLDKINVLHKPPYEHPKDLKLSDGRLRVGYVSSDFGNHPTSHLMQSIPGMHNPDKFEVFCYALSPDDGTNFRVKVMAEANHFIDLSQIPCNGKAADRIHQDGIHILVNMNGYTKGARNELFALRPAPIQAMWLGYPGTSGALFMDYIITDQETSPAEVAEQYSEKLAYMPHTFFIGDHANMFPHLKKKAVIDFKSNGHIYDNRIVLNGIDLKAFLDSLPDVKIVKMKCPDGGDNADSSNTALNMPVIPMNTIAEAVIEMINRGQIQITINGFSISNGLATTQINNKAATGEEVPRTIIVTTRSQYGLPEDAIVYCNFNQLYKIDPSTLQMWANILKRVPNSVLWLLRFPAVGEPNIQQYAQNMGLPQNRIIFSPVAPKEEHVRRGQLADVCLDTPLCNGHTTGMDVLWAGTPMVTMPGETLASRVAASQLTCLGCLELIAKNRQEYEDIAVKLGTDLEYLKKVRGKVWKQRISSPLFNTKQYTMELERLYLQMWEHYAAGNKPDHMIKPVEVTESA
Effect on: binding
Method: phage display NGS
Form: peptide
Reference: input library
Quantity: minimum log2 enrichment ratio
Molecule = HQHQHIDHHYLFEG; value = 2.42
Molecule = YAHTHMYNHPAIYTH; value = 1.77
Molecule = QNYRPFYMINISSGS; value = 1.69
Molecule = TITHNRTPWGSHHIH; value = 3.4
Molecule = TDSYMPVYEIKSKAV; value = 2.5
Molecule = HQFDGHSNLHIHSIE; value = 1.8
Molecule = TQTQWKFHHYWESHS; value = 2.1
Molecule = WSIHHMPRHESKYTD; value = 2.87

Other studies, line by line
SMILES = O=C(Nc1ccc(Oc2ccc(F)cc2)cc1)N1CCc2ncccc2[C@H]1c1ccc(F)cc1; target = HTR2C (Homo sapiens, UniProt P28335); effect on = ligand displacement; tested at = 10 µM; quantity = inhibition; value = 68.4%
SMILES = N/C(=N\[N+](=O)[O-])N/N=C\c1ccc(-c2cccc([N+](=O)[O-])c2)o1; target = TNK2 (Homo sapiens, UniProt Q07912); effect on = enzyme activity; mode = inhibitor; tested at = 0.5 µM; reference = control; quantity = remaining activity; value = 99.9%

Repeated from above (other studies, line by line):
SMILES = O=C(Nc1ccc(Oc2ccc(F)cc2)cc1)N1CCc2ncccc2[C@H]1c1ccc(F)cc1; target = HTR2C (Homo sapiens, UniProt P28335); effect on = ligand displacement; tested at = 10 µM; quantity = inhibition; value = 68.4%
SMILES = N/C(=N\[N+](=O)[O-])N/N=C\c1ccc(-c2cccc([N+](=O)[O-])c2)o1; target = TNK2 (Homo sapiens, UniProt Q07912); effect on = enzyme activity; mode = inhibitor; tested at = 0.5 µM; reference = control; quantity = remaining activity; value = 99.9%
